{"data": "Measurements of several laboratories", "note": "Every numbered part comes from another study and shows a few of its results, in no order. Positions count from the first letter of the parent shown.", "sequence of UniProt Q9BYT3 (whole entry, looked up)": "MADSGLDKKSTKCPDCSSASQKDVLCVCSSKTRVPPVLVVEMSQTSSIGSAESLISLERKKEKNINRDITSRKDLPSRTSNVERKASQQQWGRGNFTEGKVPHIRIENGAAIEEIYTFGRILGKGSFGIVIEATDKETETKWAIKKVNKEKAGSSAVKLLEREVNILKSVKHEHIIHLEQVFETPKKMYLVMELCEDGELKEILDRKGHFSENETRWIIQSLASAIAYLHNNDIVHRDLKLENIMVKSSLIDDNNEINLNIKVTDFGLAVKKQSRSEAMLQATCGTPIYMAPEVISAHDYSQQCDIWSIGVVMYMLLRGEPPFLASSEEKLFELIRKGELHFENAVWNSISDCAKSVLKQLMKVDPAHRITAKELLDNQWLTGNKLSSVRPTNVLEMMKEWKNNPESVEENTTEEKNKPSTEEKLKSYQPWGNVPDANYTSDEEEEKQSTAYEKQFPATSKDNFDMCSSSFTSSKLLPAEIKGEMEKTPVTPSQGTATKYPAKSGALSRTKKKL"}
{"data": "Set 1", "target": "inorganic phosphate, free oxyanion", "technique": "microfluidic competitive inhibition", "sample": "in vitro, cell-free expressed", "tested at": "not given", "notes": "derived from inhibition constants, unchanged parent 615000 nM", "direction": "lower = stronger binding", "starting sequence": "PafA, mature enzyme, eGFP fusion (Elizabethkingia meningoseptica, UniProt Q9KJX5); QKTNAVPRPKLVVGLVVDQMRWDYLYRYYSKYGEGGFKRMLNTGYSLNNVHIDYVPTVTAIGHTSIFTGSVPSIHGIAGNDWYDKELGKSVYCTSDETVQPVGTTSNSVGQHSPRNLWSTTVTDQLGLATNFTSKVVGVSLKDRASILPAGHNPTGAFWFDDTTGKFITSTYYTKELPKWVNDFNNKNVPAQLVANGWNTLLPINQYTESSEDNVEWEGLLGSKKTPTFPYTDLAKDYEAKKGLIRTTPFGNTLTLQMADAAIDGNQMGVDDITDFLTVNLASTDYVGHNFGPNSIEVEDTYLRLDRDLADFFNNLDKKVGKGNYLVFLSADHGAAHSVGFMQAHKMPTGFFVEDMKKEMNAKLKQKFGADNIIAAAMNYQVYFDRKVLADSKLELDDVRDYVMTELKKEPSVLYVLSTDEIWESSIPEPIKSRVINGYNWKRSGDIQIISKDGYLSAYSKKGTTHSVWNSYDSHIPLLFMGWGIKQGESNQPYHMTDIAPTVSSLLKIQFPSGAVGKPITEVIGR"}
{"Change": "M404V", "phosphate dissociation constant [µM]": 605}
{"Change": "S425G", "phosphate dissociation constant [µM]": 617}
{"Change": "S330V", "phosphate dissociation constant [µM]": 773}
{"Change": "V50G", "phosphate dissociation constant [µM]": 348}
{"Change": "P249G", "phosphate dissociation constant [µM]": 728}
{"Change": "V71G", "phosphate dissociation constant [µM]": 346}
{"Change": "P249V", "phosphate dissociation constant [µM]": 573}
{"Change": "E34V", "phosphate dissociation constant [µM]": 698}
{"data": "Set 2", "target": "UDP-N-acetylglucosamine--peptide N-acetylglucosaminyltransferase 110 kDa subunit (OGT, Homo sapiens, UniProt O15294)", "observed": "binding", "technique": "phage display NGS", "molecule type": "peptide", "reference": "input library", "sequence of UniProt O15294 (whole entry, looked up)": "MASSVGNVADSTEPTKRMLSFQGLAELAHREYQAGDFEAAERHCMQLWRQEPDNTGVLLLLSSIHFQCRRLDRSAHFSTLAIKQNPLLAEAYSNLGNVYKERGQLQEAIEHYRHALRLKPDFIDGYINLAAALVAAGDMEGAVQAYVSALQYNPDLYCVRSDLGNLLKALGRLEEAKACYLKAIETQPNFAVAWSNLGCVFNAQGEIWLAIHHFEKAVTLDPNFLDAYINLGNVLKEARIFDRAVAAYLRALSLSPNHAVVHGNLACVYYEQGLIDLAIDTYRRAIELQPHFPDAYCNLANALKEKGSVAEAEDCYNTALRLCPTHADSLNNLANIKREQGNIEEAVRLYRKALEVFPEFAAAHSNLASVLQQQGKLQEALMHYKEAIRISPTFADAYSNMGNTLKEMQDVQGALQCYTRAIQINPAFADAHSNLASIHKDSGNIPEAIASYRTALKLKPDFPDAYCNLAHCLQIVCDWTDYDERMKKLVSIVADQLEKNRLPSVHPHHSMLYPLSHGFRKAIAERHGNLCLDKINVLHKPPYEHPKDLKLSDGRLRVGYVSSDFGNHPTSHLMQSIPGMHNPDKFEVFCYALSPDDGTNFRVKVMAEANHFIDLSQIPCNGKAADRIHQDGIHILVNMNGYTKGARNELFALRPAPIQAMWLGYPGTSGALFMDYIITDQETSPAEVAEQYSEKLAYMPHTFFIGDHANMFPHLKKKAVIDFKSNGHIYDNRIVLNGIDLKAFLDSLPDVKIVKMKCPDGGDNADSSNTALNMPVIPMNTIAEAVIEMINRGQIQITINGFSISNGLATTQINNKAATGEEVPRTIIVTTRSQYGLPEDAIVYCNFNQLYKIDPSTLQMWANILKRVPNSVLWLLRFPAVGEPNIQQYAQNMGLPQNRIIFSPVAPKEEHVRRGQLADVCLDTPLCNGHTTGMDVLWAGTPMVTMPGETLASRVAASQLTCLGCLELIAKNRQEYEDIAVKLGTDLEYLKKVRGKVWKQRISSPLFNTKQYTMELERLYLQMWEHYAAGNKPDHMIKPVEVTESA"}
{"Molecule": "HRQHHVTDSMNPYRT", "minimum log2 enrichment ratio": 2.37}
{"Molecule": "VLWPPYTYHHNHHRI", "minimum log2 enrichment ratio": 5.81}
{"Molecule": "EAAATFPPMYQLQVV", "minimum log2 enrichment ratio": 3.83}
{"Molecule": "HVYHKNHADTHAVAH", "minimum log2 enrichment ratio": 3.11}
{"Molecule": "HVNSRFWFHTQDHHP", "minimum log2 enrichment ratio": 2.06}
{"Molecule": "QPHHQHYFGVNHTQR", "minimum log2 enrichment ratio": 3.19}
{"Molecule": "SQYVSLLPQYQITLE", "minimum log2 enrichment ratio": 1.32}
{"Molecule": "HWHPLHQQMPHDMGS", "minimum log2 enrichment ratio": 3.7}
{"data": "Set 3", "target": "CCND1, cyclin fold, Cln2 fusion (human)", "technique": "yeast growth competition, sequencing", "sample": "yeast", "notes": "strong parent motif", "reference": "not given", "direction": "higher = stronger binding", "starting sequence": "viral docking peptide; KGVKRKLFAEDSS; partner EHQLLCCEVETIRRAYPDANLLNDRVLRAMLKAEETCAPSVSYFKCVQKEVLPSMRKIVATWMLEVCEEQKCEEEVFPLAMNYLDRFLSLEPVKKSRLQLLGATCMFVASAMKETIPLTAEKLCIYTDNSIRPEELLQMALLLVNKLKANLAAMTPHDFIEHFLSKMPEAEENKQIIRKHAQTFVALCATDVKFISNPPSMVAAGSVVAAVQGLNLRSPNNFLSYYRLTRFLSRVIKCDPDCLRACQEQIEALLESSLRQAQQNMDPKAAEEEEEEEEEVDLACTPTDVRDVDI"}
{"Change": "L7C", "normalised enrichment score": 0.00346}
{"Change": "K4Y", "normalised enrichment score": 0.271}
{"Change": "A9L", "normalised enrichment score": 0.589}
{"Change": "S12K", "normalised enrichment score": 0.88}
{"Change": "G2F", "normalised enrichment score": 0.95}
{"Change": "E10V", "normalised enrichment score": 0.142}
{"Change": "S12D", "normalised enrichment score": 2.72}
{"Change": "A9M", "normalised enrichment score": 1.23}
{"data": "Single results of other studies"}
{"SMILES": "Nc1ncnc2n[nH]c(Nc3ccc(F)cc3)c12", "target": "Serine/threonine-protein kinase 33 (STK33, Homo sapiens, UniProt Q9BYT3)", "observed": "enzyme activity", "action": "inhibitor", "technique": "radiometric", "tested at": "0.5 µM", "endpoint": "remaining activity", "result": "94.3%"}
{"note": "Repeated from above (set 1):"}
{"Change": "S425G", "phosphate dissociation constant [µM]": 617}
{"Change": "S330V", "phosphate dissociation constant [µM]": 773}
